Measured values from different studies.
A part holds a random share of what one study measured. Positions count from the first letter of the parent shown.
Sequence of UniProt P34969 (whole entry, looked up): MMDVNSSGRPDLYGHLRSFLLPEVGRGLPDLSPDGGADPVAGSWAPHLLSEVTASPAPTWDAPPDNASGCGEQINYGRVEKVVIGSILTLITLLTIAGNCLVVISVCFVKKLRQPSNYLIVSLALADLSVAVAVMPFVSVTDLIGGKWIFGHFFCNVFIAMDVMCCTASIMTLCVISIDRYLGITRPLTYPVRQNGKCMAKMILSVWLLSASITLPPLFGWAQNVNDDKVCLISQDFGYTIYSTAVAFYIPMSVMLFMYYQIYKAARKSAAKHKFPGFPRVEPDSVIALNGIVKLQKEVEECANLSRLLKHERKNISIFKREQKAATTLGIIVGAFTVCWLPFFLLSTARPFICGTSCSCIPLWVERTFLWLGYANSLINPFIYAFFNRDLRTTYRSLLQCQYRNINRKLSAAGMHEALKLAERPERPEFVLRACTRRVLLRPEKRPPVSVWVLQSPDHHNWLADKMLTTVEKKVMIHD
Sequence of UniProt Q04912 (whole entry, looked up): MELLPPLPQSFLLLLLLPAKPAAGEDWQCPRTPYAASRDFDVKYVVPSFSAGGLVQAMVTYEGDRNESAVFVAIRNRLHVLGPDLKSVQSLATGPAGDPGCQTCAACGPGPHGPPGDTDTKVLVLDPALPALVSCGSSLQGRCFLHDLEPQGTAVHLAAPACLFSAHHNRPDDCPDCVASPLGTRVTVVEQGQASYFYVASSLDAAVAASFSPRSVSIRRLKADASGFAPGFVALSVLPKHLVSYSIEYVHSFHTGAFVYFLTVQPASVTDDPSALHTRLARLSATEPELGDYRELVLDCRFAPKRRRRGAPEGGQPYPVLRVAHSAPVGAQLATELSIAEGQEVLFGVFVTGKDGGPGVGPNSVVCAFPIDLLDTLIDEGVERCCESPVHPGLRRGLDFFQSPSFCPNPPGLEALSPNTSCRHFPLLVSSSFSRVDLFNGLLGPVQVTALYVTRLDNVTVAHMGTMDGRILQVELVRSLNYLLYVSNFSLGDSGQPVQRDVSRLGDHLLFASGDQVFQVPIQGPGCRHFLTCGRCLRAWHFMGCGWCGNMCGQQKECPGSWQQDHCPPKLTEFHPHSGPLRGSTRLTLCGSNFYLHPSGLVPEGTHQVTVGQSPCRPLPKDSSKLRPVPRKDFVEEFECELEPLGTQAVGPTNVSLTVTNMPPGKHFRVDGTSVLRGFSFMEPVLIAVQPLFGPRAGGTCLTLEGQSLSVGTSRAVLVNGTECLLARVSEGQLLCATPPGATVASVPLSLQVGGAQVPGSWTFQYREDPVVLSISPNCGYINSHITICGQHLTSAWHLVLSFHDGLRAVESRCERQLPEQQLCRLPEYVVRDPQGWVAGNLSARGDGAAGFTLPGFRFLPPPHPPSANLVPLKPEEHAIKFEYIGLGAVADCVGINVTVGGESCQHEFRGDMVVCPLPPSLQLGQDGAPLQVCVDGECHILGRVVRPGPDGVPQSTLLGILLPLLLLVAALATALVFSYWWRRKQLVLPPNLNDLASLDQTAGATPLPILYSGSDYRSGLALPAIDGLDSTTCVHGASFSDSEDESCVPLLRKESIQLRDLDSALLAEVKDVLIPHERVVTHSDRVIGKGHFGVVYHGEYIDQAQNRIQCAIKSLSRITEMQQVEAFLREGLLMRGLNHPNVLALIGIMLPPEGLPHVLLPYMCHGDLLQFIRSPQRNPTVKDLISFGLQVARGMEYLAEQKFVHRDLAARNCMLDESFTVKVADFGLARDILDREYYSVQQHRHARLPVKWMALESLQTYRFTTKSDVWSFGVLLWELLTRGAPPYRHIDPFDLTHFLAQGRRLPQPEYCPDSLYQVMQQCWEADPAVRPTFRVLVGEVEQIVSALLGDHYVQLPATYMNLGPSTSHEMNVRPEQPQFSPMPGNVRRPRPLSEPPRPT
Sequence of UniProt P10398 (whole entry, looked up): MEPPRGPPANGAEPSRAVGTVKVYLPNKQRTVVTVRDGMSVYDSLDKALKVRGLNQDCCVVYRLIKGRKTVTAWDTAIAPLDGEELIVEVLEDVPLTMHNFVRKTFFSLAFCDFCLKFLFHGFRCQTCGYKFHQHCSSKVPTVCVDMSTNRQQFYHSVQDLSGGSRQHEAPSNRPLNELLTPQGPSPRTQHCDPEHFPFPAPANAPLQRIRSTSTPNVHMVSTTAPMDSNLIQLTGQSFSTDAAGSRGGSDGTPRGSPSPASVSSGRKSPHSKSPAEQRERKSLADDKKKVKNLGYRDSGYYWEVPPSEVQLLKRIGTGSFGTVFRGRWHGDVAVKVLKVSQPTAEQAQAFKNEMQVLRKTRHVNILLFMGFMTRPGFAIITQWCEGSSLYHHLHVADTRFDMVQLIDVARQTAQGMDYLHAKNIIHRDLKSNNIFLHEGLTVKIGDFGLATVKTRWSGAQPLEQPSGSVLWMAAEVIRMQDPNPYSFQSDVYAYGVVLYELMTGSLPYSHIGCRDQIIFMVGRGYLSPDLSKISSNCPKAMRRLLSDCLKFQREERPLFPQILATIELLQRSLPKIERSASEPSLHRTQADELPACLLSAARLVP
Sequence of UniProt P49841 (whole entry, looked up): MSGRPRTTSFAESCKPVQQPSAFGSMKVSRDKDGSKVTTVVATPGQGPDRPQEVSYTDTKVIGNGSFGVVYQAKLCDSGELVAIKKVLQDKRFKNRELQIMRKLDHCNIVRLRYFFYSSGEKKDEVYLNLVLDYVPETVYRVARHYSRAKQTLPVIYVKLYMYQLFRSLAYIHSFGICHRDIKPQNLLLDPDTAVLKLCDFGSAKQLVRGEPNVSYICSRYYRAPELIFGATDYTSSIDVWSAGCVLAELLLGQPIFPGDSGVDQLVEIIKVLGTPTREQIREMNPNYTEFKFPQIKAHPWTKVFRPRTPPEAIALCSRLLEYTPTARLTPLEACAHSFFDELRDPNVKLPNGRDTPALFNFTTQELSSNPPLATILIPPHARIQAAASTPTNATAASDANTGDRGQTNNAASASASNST
Sequence of UniProt P35462 (whole entry, looked up): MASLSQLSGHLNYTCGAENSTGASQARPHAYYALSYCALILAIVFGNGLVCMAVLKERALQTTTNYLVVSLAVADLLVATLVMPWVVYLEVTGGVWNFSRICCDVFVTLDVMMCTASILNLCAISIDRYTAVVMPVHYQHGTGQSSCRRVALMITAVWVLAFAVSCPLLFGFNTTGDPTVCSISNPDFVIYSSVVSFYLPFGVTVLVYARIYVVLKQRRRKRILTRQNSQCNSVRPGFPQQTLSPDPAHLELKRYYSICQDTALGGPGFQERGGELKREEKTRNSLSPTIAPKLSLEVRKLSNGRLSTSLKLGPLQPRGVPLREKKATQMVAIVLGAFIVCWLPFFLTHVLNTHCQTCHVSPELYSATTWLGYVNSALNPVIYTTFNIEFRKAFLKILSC
Sequence of UniProt P08912 (whole entry, looked up): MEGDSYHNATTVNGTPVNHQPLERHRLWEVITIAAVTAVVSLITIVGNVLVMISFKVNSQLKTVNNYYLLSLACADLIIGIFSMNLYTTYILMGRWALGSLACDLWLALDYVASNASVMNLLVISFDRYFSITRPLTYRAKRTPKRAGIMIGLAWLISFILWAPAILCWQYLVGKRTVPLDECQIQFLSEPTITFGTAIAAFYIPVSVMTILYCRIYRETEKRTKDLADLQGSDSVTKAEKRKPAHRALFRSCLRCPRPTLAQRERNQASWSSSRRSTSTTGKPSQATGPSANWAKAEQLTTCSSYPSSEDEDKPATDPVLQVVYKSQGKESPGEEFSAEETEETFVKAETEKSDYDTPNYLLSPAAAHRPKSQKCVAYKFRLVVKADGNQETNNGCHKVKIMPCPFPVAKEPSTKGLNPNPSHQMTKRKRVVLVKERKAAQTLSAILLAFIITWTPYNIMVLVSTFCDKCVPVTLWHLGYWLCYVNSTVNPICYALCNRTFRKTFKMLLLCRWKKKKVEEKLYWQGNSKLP
Sequence of UniProt P78368 (whole entry, looked up): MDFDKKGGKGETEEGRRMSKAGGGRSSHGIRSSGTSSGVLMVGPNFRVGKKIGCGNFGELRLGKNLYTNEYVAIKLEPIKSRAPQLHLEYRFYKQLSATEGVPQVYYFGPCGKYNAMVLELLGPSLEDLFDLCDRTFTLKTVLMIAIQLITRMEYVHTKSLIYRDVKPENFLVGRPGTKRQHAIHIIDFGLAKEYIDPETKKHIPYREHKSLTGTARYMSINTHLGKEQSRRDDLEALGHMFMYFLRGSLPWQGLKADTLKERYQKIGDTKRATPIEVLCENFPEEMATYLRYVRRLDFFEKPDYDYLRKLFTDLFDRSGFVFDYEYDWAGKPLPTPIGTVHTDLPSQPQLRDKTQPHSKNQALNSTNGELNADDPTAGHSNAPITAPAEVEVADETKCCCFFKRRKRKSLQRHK
Sequence of UniProt P21917 (whole entry, looked up): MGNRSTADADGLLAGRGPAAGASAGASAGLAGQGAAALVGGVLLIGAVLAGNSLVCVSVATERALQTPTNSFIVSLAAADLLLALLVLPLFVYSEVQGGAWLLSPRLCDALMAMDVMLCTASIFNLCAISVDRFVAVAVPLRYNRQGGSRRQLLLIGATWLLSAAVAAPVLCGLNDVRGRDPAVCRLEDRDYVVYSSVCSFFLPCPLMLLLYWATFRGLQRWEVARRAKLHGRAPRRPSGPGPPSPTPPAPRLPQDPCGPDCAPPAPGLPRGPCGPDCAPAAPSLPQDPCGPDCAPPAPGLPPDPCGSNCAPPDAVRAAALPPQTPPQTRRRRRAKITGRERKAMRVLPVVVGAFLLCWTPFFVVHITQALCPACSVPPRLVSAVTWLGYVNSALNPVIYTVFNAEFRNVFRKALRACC

Study 1 — target: CCNA2, cyclin fold, Cln2 fusion (human); technique: yeast growth competition, sequencing; sample: yeast; setting: strong parent motif; baseline: not given; direction: higher = stronger binding
Starting sequence: E2F1 docking peptide (human); PPVKRRLDFETDH
Under “normalised enrichment score”, `PPVKRRLDEETDH [F9E]` is recorded as 0.49.
For `PPVKRRIDFETDH [L7I]`, “normalised enrichment score” read 5.33.
`PPVKRRLDWETDH [F9W]`: “normalised enrichment score” 5.07.
`PPVKRRLDFETTH [D12T]` — result for “normalised enrichment score”: 5.93.
Under “normalised enrichment score”, `PPVKRRLDFETHH [D12H]` is recorded as 6.25.
Under “normalised enrichment score”, `PPVKRRLDGETDH [F9G]` is recorded as 0.28.
`PPVKRRLQFETDH [D8Q]` — result for “normalised enrichment score”: 5.84.
`PHVKRRLDFETDH [P2H]`: “normalised enrichment score” 6.45.

Study 2 — effect on: cell-free assay; concentration: 10 µM
SMILES: CS(=O)(=O)c1cc(C2(NC(=O)c3cncc4c3cnn4-c3ccc(F)cc3)CC2)ccn1
The inhibition was 3.92% (CHRM5 (Homo sapiens, UniProt P08912)).
HRH1 (Homo sapiens, UniProt P35367) — inhibition: 11.2%.
It gave 10.5% for inhibition (HTR7 (Homo sapiens, UniProt P34969)).
It gave -1.14% for inhibition (DRD4 (Homo sapiens, UniProt P21917)).
DRD3 (Homo sapiens, UniProt P35462) — inhibition: 17.6%.

Study 3 — effect on: enzyme activity; action: inhibitor; concentration: 0.5 µM; baseline: control
SMILES: COc1cc2c(N3CCN(C(=O)Nc4ccc(OC(C)C)cc4)CC3)ncnc2cc1OCCCN1CCCCC1
TBK1 (Homo sapiens, UniProt Q9UHD2) — remaining activity: 97.2%.
The remaining activity was 94.7% (EPHA3 (Homo sapiens, UniProt P29320)).
For MST1R (Homo sapiens, UniProt Q04912): remaining activity read 99.2%.
For MAPKAPK2 (Homo sapiens, UniProt P49137): remaining activity read 100%.
The remaining activity was 95.5% (CSNK1G2 (Homo sapiens, UniProt P78368)).
For GSK3B (Homo sapiens, UniProt P49841): remaining activity read 98.1%.
ARAF (Homo sapiens, UniProt P10398) — remaining activity: 103%.
WEE1 (Homo sapiens, UniProt P30291) — remaining activity: 97.5%.
For FRK (Homo sapiens, UniProt P42685): remaining activity read 101%.
For MAP3K5 (Homo sapiens, UniProt Q99683): remaining activity read 96.6%.
The remaining activity was 98.6% (RPS6KA2 (Homo sapiens, UniProt Q15349)).

Study 4 — technique: EMSA with sequencing; molecule type: double-stranded DNA, one strand shown; sample: in vitro; concentration: 10 and 20 nM; baseline: negative control set to 0; direction: higher = stronger binding
Target: Hepatocyte nuclear factor 3-alpha (Foxa1, Mus musculus, UniProt P35582, residues 1-468, full length assumed)
Setting: whole designed probe, mean of two concentrations, ends assumed
All sequences stand within: GTGAGCGGTGCCCATTGATGGGGAAC … TTTCACTGGGATCGTGGGGAC
Target sequence (chain): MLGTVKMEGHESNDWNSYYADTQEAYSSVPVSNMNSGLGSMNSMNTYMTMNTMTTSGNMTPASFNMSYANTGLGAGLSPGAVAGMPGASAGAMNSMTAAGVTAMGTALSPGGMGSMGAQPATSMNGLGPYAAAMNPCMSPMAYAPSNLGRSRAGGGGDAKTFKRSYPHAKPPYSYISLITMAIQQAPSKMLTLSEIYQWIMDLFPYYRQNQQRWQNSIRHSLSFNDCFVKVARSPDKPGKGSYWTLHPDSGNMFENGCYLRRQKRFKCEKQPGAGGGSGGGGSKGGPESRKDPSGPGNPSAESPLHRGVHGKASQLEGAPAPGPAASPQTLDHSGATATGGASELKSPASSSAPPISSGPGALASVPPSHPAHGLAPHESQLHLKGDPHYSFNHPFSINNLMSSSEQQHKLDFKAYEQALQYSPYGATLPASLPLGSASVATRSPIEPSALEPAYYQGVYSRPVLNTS
Under “normalised bound fraction”, `AAAGTAATATAGCAGAATGACTTTTATTATAGATGATAATTTATGAAAAATGTAGCCAACGGAATTGATGTCAAACTTTTATCCACAAGTGCTATTTACTTTAGTATTGCTCACTATTTACCAAGGTTTGTTACAGCAGTAGTCACTATCTCAGTTGGCATTCGGCCTGTTTATATTTTTTAAAGTGGCATTG` is recorded as 0.39 ratio.
`CAGAGGGGCTCTCAGTCCACTCTGCGGACTGCTGACTGAGACTTTGCAGACCTGCTCCCCTTCTCCCTGCTACCTGCCTGCCGGAAGAGTTGAGTCATCTCAGCCCACCTCCTGCACCCAGAGCTGTGAGTCACAGTTGTTCAAACACGGAGGTGTGAATCACTCAACTTCTAGCCTTTGAGACATCTTGTGT`: “normalised bound fraction” 0.0806 ratio.
Under “normalised bound fraction”, `GTGAGGTCCTGAGGCCCAGGGAAGGGCCCAGGGAGCTCCAGGGACAGTGGAGAGAGGCAGAGACGGGCAGTGCTGGAGATAGAACAGTAAGAGTAAACAGGGATGGATAAACAGGGGCTGAGGGGTAAAGTCCAGAAAGGCCCAGCCAAAACCAGCAACCAAGTGGCCTCCAGTTACCCGGTAAGCACTTAGA` is recorded as 0.144 ratio.
Under “normalised bound fraction”, `TTATTTTGATAACATCTCCTTTTCATTAGAACCTTCCTCTCTAGTCCCTCTATTTCAATCTTTAATGTTGTTCTTTGTGCTGTTTCATGCCTTAGATTACATTCTTACACACACACACCCCATTCCTGGAATTTCCCTCCTAGTCGTCTCTGCCTGAAAAAAAACCCTACTAACCCTTTGAGGCCAGCTCAGA` is recorded as 0.0138 ratio.
Under “normalised bound fraction”, `TGTTCTGAAAGCATTGGGATGCATCCATGTTTTGCGTACAGACCCCCTTCTGTCTGGTGCACTCTGCCCTCTAAAAGCTTCCTGAATTGCTTTGTAAACAAGGCAGCTACTACAGCTGCAACTGTTGGGTTTGGACTTTTGCCAGCTTGAAATTTATCCCTGCCCTAATGCTATATATCTGGGAGCAGGCAGT` is recorded as 0.248 ratio.

Some of these lines once more (study 2):
It gave -1.14% for inhibition (DRD4 (Homo sapiens, UniProt P21917)).
It gave 10.5% for inhibition (HTR7 (Homo sapiens, UniProt P34969)).
